Published values gathered from unrelated publications.
Parts stem from different laboratories: compare values within a part only. Substitutions count along the parent as printed.

Series 1
Target: RING finger protein unkempt homolog, zinc fingers 1-6, GST-SBP tag (UNK, Homo sapiens, UniProt Q9C0B0, residues 30-357)
Method: RNA Bind-n-Seq
Molecule type: RNA
Medium: in vitro
Tested at: not given
Setting: RNA with constant flanks, human and mouse sites, ends assumed
Reference: input RNA pool
Reading: higher = stronger binding
Shared flanks, not repeated: GGGAGUUCUACAGUCCGACGAUC … CAACAGAGGAUUGAGCAUCA
Target sequence (chain): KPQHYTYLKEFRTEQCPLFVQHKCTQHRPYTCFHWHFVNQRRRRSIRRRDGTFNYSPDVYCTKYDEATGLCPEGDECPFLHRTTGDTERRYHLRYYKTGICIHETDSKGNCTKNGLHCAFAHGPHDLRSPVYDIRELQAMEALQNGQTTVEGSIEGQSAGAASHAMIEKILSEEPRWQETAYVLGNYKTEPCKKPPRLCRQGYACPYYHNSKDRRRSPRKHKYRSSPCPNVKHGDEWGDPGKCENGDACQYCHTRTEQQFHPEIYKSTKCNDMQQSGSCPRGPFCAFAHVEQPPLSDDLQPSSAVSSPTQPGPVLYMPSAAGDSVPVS
Sequence | bound/input enrichment [ratio]
GUCAUACAUAUUAAUGACCUGACAGUUAACAUUCUGUUGUUUAUUAUUGCCUUUCUCCACCUUAGAGAGCCAUAAAUAACUCUCUGGUGAAGUGAUUUGCUAUAAUGGGGGUGAGGAGUG | 0.476
GGUGACGUGGUUCCGGUUGGACAGAGGAGAGCGUGGUGUUGGUGCAUGUGUUUCGGACUGGCCUUCAUGCUUGCUGGCGUCAUCCUCGGAGGGGCGUACCUGUACAAGUAUUUUGCUCUU | 0.369
AGUGUGAGGGGCGGGAGGGAAAGAAGAGGGGUUUAAAUUAGAUUUUUUAAAACACAGAGCAAGCGCCAGAGGCGUCGGCAUCCCAGGUGUCGCCGCUUCCUGCUGCACAGGGCUCGGCGU | 6.87
AGAACUUCAGGAAAUUCACAGAGAGAGUACCAGCUGAUGAAACUGCUUUUGGAUAAUACUCAAAUUAUGAAUGCUCUGCAGAAAUAUCCCAACUGUCCUACAGAUGUGAGGCAGUGGGCA | 0.138
CUGAAGCUGGACCCUGCGGGCCGUGGUGAGGGCCAGCUGCCACAGGUGGUCUUCUCUGAUGGGCAGCAGCGGCCCGUGGACCCCGCCCUGCUGGACGAGCUGCAGAAGGUGUUCACCCUG | 0.0496
UCCUCACCAUCAAACCCGAAUGGAAACUUUAAUGUCGUCAUUAAAGAAGAGCCUCUAGAUGAUUAUGAUUAUGAACUUGGUGAAUGCCCAGAAGGGAUAACAGUGAAACAAGAAGAGACA | 0.731
UAGAACCCCAAUAUAAAAAAUAAAGUAAUGCAGACCUGGGCAGUUUGCAUUUUUUUUUUUUUUUUUUUUUGGUGGAAGAAGUCUCAGCGUCUCUUAGGACUGACUGUUCAAAGGCUCCUC | 0.881
UCCAUCACGAAGAAUCAAUGGCUGUUAACACCUAGCAGGGAAUAUGCCACCAAAACAAGAAUUGGGAUCCGGCGUGGGAGAACUGGCCAAGAACUCAAAGAGGCAGCAUUGGAACCAUCG | 0.104

Series 2
Target: Histone acetyltransferase KAT6A, winged helix 2, GST fusion (KAT6A, Homo sapiens, UniProt Q92794, residues 85-181)
Method: protein binding microarray
Molecule type: double-stranded DNA, one strand shown
Medium: in vitro
Tested at: not given
Setting: 8-mer, flanks averaged, mean of 2 arrays, mostly near background
Reference: not given
Reading: higher = stronger binding
Residues (chain): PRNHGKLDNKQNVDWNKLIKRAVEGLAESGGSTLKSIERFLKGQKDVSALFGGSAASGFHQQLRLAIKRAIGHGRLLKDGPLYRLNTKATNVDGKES
Sequence | E-score
AGCCGTCA | 0.0845
TAAACGCA | 0.00975
GCGTCTCC | 0.093
ATATTGGG | -0.066
AGAATTGC | -0.119
AGTCTACC | -0.165
CCAAAACC | 0.0871
ACACAAGT | -0.184
GAACTGTA | -0.0494
AATCATCA | -0.00214
CCACTTTA | -0.0331
CCACCCCG | 0.149
CCGCATCA | -0.00319
AGTATGTA | -0.217
AGATATCG | 0.0749
ATACCCGC | 0.108
CAATATAC | -0.134
AACCATGC | 0.0427
CGATGCGA | 0.134

Series 3
Target: CCNB1, cyclin fold, Cln2 fusion (human)
Method: yeast growth competition, sequencing
Medium: yeast
Setting: weak parent motif
Reference: not given
Reading: higher = stronger binding
Parent: CENPC docking peptide (human); VKTKKRLNFDDKV
Variant | normalised enrichment score
F9A | 0.388
K12A | 1.09
D10A | 0.429
V13A | 0.417
T3A | 0.658
N8A | 0.985
K5R F9L | 0.233

Series 4
Target: Phosphate system positive regulatory protein PHO4, full length, GST-tagged (PHO4, Saccharomyces cerevisiae, UniProt P07270, residues 1-312)
Method: competition protein-binding microarray
Molecule type: double-stranded DNA, one strand shown
Medium: in vitro
Tested at: 2 µM
Setting: whole 60-bp probe, lowest competitor level
Added: Cbf1 competitor, 0.05 µM
Reading: higher = stronger binding
Shared flanks, not repeated: … GTCTTGATTCGCTTGACGCTGCTG
Residues (chain): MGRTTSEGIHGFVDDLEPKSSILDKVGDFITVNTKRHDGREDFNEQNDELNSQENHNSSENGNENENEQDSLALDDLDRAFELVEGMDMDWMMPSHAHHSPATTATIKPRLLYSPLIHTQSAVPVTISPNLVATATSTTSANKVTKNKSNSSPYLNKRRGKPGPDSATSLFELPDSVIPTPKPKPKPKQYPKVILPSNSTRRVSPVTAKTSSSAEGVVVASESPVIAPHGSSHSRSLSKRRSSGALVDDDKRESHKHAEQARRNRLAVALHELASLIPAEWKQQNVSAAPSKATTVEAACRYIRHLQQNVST
Sequence | fluorescence intensity
AAGGTTTCGTTATCTACCGTGTCGGAGTTAGAAGTG | 5450 a.u.
GCCACCATGGATCCACACGTATTTGGATCATCTTCG | 5920 a.u.
TATAGGGCTCTGAGTCTCGTGGTCGAGGAATCCGGC | 8020 a.u.
TGCGCAACAACTTGCTGGGTGGGTGTATGTCTAGAA | 4880 a.u.
CTTCTGTAAATTTGGTCTGTGGGTGGACGCGCCCCG | 4530 a.u.
AAAGCGGTAATTTGGGTCGTGGGTGCAGATATCTAT | 9310 a.u.
GTCTTGTCTCATTGATTAGTGGGTGTCCCCACTTCA | 4070 a.u.
GCTGCCTGCACCGACTGCGTGCGATCGTAATTGGTA | 8990 a.u.
TCCAACGTATCAGTGCGCGTAATCCTTCTCTTGGTA | 3480 a.u.
AAAGCGGTAATTTGACGGGTGGGTGCAGATATCTAT | 4510 a.u.
CAAACGTCTGTTTGCCACGGGCATCGCAAATCTTAC | 7280 a.u.
GTCTTGTCTCATTGCAGAGTGGGTGTCCCCACTTCA | 4880 a.u.
GCCACAACTGCGGCCCGCGTGAAGAAAAAACCCCAT | 5420 a.u.
CGTCCTAGCGATTGACGGGTGGGTGCCATGAGGAAG | 7200 a.u.
TTATCGGTCTCGAGTCACGTGCGGAGACGCGGAGGC | 15100 a.u.

For quick reference, copied from above (series 2):
Sequence | E-score
TAAACGCA | 0.00975
AACCATGC | 0.0427
ATATTGGG | -0.066
AGAATTGC | -0.119
AGCCGTCA | 0.0845
